Experimental data pooled from the literature.
Every numbered part comes from another study and shows a few of its results, in no order. Changes are numbered by the printed parent chain.

Block 1 — method: RNA Bind-n-Seq; form: RNA; sample: in vitro; concentration: 200 nM; setting: whole 134-nt RNA, ends assumed; added: 150 mM KCl; baseline: input library; reading: higher = stronger binding
Target: Fragile X messenger ribonucleoprotein 1, C-terminal low-complexity region (Fmr1, Mus musculus, UniProt P35922)
For `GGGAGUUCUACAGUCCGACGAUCGUCCUGUGCUACACAUCGUAUGUACCGAAUCGGAAAAAAAGGUUUUUUUGGAAAAAGGAAAGUAUUAUGUUACGCCGUUCGGAUCUGCACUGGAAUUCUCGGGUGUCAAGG`, the log2 enrichment was -1.27.
With `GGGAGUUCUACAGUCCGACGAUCUAUUGGACACAGUGCCCCGCUGAACAGCAGCUGUUCCCAGCGCCAGAGGACCCCACAGCCACAGUAGGAGCUUUGCGACCCCUACGCAACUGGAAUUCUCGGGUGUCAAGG` the log2 enrichment was -0.999.
With `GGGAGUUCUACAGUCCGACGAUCUUCUUUGCCCAACGGGGCCGUGGAUACCUGCCUUUUAAUUCUUUUUUAUUCGCCCAUCGGGGCCGCGGAUACCUGCUUUUUAUUUUUUUUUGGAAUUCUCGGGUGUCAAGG` the log2 enrichment was 0.271.
`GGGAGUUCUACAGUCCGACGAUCACCAUGCAGGUGGGCAUCUUUGGGAAGUGGGGCAAGGGGGGGAUAGGGUGGGGGGUAACACUUUGGGAACAGGUGGUCCCAGGUCGUUUCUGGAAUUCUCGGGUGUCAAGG` has a log2 enrichment of 0.828.
The log2 enrichment of `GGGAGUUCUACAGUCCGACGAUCCACAGACAACACGCACCCACACAGACACAGAGGGAAGGGGUUGGGAUAGGGACAGGGUGCACAGCAGGGCGGGGUAGGACCCCAGCCCCUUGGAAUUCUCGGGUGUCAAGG` is reported as 1.16.

Block 2 — target: CCNB1, cyclin fold, Cln2 fusion (human); method: yeast growth competition, sequencing; sample: yeast; setting: weak parent motif; baseline: not given; reading: higher = stronger binding
Starting sequence: SCAPER docking peptide (human); SNARRSLNFGGST
`R5E`: “normalised enrichment score” 0.16.
For `S1W`, “normalised enrichment score” read 1.36.
For `A3I`, “normalised enrichment score” read 1.14.
`N2E` — result for “normalised enrichment score”: 0.0064.

Block 3 — method: RNAcompete; form: RNA; sample: in vitro; concentration: 20 nM; setting: 7-mer, probes averaged, single round; baseline: mean of 7-mers; reading: higher = stronger binding
Target: PABPC1L2, full length, GST fusion (mouse, UniProt A0ABA7IW68)
Construct (chain): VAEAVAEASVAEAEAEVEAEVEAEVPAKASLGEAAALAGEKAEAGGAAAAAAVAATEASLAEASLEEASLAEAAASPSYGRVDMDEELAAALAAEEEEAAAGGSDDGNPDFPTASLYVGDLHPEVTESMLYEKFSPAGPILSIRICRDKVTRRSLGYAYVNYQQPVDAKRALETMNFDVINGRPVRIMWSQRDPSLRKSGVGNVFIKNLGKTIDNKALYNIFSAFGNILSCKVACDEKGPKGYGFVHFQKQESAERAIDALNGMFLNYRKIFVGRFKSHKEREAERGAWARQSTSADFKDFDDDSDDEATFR
`CAUGGCG` has a 7-mer Z-score of 0.106.
With `AGGGUUA` the 7-mer Z-score was 0.278.
With `AUCCAGA` the 7-mer Z-score was -0.0627.
`AUAGUGA` gave a 7-mer Z-score of -0.175.

Single results of other studies
For `PhoQ, residues 284 288 289 292 302 303 ASTSDA`, the fold induction was 1.2 (PhoP, residues 12 14 15 18 19 SPWRL (Escherichia coli, UniProt P23836); Sort-seq, item: YFP reporter; E. coli; PhoQ-PhoP variant library, added: 10 µM Mg2+; baseline: high Mg2+ state, higher = stronger signaling).
